Published values from different studies.
Numbered parts are unrelated; each lists some results of a single study. Changes are numbered by the printed parent chain.

Series 1 — target: OGT, full length, His-tagged (human); technique: phage display, sequencing; medium: in vitro; tested at: 1 µg OGT; reference: input library; direction: higher = stronger binding; starting sequence: peptide; TAPFYPPAYQIQVFK
Notes: single substitutions, 15-mer displayed peptide, unchanged parent 19.6
Variant | fold enrichment [fold]
P3W | 19.1
I11F | 0.769
A8I | 17.1
P7D | 1.95
Y5D | 0.824
F14I | 12.8
V13K | 1.43
P3Q | 23.3

Series 2 — Variant: R111C; technique: DHFR PCA, deep sequencing; medium: yeast; reference: wild-type fitted maximum; direction: higher = stronger binding
Target: ABI1, truncated, D143A, DHFR fusion (Arabidopsis thaliana)
Notes: methotrexate growth selection, single substitutions
Starting sequence: PYL1, truncated, DHFR fusion (Arabidopsis thaliana); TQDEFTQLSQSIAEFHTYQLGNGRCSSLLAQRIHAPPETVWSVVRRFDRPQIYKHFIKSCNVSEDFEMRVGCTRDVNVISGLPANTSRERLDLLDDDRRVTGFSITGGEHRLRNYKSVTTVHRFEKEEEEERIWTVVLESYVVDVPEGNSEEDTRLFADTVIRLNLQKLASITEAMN
conditions | relative binding score [%]
together with: (+)-ABA 17 µM | 23.8
together with: (+)-ABA 2500 µM | 79.9
together with: (+)-ABA 200 µM | 63.6
together with: (+)-ABA 0 µM | 10.5
together with: (+)-ABA 0.11 µM | 13
together with: (+)-ABA 4.8 µM | 2.91

Series 3 — technique: protein-binding microarray; molecule type: double-stranded DNA, one strand shown; medium: in vitro; tested at: 250 nM; notes: 60-bp whole probe; together with: salmon DNA 0.4 mg/ml; reference: random background probes; direction: higher = stronger binding; all sequences stand within: GCCTAGCAC … GTCTTGATTCGCTTGACGCTGCTG
Target: Interferon regulatory factor 5, full length, phosphomimetic (IRF5, Homo sapiens, UniProt Q13568-2, residues 1-514, K96S/S451D/S453D/S456D/S462D)
Oligonucleotide | log fluorescence [z-score]
GTCGATTTCAGTCTCGAGACGTGCTAG | 2.44
TTAGGTATCGGCTTTCGGTTAGTGCTA | 8.35
TCAATGATCTTCCTTCATACTGTGCTA | 0.499
TTAGAACTGAGTATCGATTCGTGCTAG | 5.62
GACGGTCTCCTATTCCTGACGTGCTAG | -0.115
TTAGGTATCGTTATCGGTTAGTGCTAG | 7.59
GGATGTGTCTTAAATAGGGGAGTGCTA | -0.102
TTAGATTTCATTATCGATTAGTGCTAG | 7.65

Further values, each from its own experiment
SMILES | system | conditions | quantity | result
O=C1CCC(N2Cc3cc(C4CCN(Cc5ccccc5)CC4)ccc3C2=O)C(=O)N1 (centres unmarked) | male Sprague Dawley rats, plasma | oral, 3.0 mg/kg | AUC(0-t) | 384 ng·h/mL
